Measurements gathered from unrelated publications.
Parts stem from different laboratories: compare values within a part only.

Set 1
Target: Sal-like protein 4, full length isoform B (SALL4, Homo sapiens, UniProt Q9UJQ4-2, residues 1-616)
Method: universal PBM
Form: double-stranded DNA, one strand shown
Matrix: in vitro
Concentration: not given
Setting: 8-mer, flanks averaged, mean of replicates
Direction: higher = stronger binding
`CCCACCTA` gave an E-score of 0.00208.
`ACGAGTCT` gave an E-score of 0.00212.
The E-score of `CAATGCCA` is reported as -0.0434.
`AAGGTCAG` has an E-score of -0.145.
`CACGGGCC` gave an E-score of -0.417.
With `CGGGAGCC` the E-score was -0.351.
`GAGTTTCA` has an E-score of -0.121.
With `GTGAATCA` the E-score was -0.0506.
For `GATCAAGC`, the E-score was -0.09.
The E-score of `AACCGCGT` is reported as -0.0447.
The E-score of `AGAGGCGC` is reported as -0.273.
The E-score of `CCCACTTC` is reported as -0.073.
`GTCATTTA` has an E-score of 0.195.
For `ATGGTCAC`, the E-score was -0.0108.
`AGTTCTCA` has an E-score of 0.0813.
For `GTTAGTAA`, the E-score was 0.186.
For `ACGATAGC`, the E-score was 0.0644.
With `GTACACTA` the E-score was 0.0875.
`ATTAATCC` has an E-score of 0.303.
`AAAGAGTA` has an E-score of 0.187.
The E-score of `AAAGGTAG` is reported as 0.0953.
The E-score of `AGTAGAAG` is reported as -0.0384.
`AGACTTTG` gave an E-score of -0.0332.
For `CAGAAAAA`, the E-score was 0.0262.
For `AAGACACA`, the E-score was 0.0318.

Set 2
Target: Phosphate system positive regulatory protein PHO4, full length, GST-tagged (PHO4, Saccharomyces cerevisiae, UniProt P07270, residues 1-312)
Method: competition protein-binding microarray
Form: double-stranded DNA, one strand shown
Matrix: in vitro
Concentration: 2 µM
Setting: whole 60-bp probe, lowest competitor level
Added: Cbf1 competitor, 0.05 µM
Direction: higher = stronger binding
Residues (chain): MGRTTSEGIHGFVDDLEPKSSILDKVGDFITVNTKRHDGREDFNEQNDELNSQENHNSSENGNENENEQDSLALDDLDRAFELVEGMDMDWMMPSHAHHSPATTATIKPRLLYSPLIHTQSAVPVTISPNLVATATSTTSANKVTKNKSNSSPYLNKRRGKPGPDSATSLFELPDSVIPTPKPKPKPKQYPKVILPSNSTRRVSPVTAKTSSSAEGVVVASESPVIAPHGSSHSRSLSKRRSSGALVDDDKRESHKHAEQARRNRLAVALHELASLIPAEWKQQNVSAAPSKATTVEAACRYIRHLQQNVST
For `GTCATAGACAGAACACACGTGGTGAGGAAAAAGGACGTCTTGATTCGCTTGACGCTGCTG`, the fluorescence intensity was 18200 a.u.
`CTTTCCCGATCTTTTCACGTGCTGTTAGCACATTTGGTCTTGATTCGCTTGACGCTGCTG` has a fluorescence intensity of 12500 a.u.
`AACTCTCCACCCTTGCACATGTCTTCAGATTCGTCCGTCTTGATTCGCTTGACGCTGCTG` gave a fluorescence intensity of 11200 a.u.
For `CTTTCCCGATCTTGTAGGGTGGGTGTAGCACATTTGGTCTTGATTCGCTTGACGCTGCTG`, the fluorescence intensity was 4620 a.u.
For `CGGGGTTAAGTTTGGAACGTGGGTGGCTTGCAGCAGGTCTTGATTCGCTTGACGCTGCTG`, the fluorescence intensity was 12800 a.u.
With `TGCTTTTTTCCAAAACACGTGGCAATGACTTTTGAAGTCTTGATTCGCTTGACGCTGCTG` the fluorescence intensity was 17800 a.u.
For `GGCAATTTGTATTGCCATGTGCTGCAGGCATGTCTGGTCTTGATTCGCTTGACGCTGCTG`, the fluorescence intensity was 11300 a.u.
For `CGTCCTAGCGATTGATAGGTGGGTGCCATGAGGAAGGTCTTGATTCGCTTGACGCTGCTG`, the fluorescence intensity was 6620 a.u.
`TAGAGCAAGAACTAGTTCGTGCCGAAGCTGAATCTTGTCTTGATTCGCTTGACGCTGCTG` has a fluorescence intensity of 6060 a.u.
With `AAATAAAGAAATCGGCACGCTGGACGTAATGAGGTTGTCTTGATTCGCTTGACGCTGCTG` the fluorescence intensity was 8150 a.u.
`CGTCCTAGCGATTGAAGCGTGGGTGCCATGAGGAAGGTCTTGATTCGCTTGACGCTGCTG` gave a fluorescence intensity of 8700 a.u.
`AAAGCGGTAATTTGTCACACTACTTCACATATCTATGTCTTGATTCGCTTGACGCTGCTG` has a fluorescence intensity of 5390 a.u.
The fluorescence intensity of `CTAACGAAGGTTTGGCCGGTGGGTGACAAGCCAAGTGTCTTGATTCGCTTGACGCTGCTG` is reported as 3600 a.u.
`AACTACTGCCTTTATCATGTGACGGAACTACGCTTGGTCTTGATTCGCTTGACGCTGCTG` gave a fluorescence intensity of 6340 a.u.
`CTTTACCATTCCCATCACGGGAAGAGTGTGTTGGCAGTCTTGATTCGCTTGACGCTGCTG` has a fluorescence intensity of 6300 a.u.
`TAACTCAGATTGACGCTCGTGATGGCTTCTCCACTGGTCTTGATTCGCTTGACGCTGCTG` gave a fluorescence intensity of 7650 a.u.
With `AGCACTGCCTCCTGTCACCTGTTTCGGCATGGCACAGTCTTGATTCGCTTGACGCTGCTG` the fluorescence intensity was 4970 a.u.
For `GCGCGATAGCGGCAGCGCGTGGCCGGGCAAGGGTCTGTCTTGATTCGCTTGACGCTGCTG`, the fluorescence intensity was 8700 a.u.
The fluorescence intensity of `CTTTCCCGATCTTGTCAAGTGGGTGTAGCACATTTGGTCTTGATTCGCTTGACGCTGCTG` is reported as 4380 a.u.
With `TAAAAGAGGTTCTCACTCGTGAATACACCATCAACTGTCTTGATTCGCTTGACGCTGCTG` the fluorescence intensity was 4120 a.u.
For `TTGTTGCAGTAATATTATGTGTCAAACCAGCCTGGCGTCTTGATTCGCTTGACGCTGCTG`, the fluorescence intensity was 3210 a.u.
`CATACCCAACCTTGCGGGGTGGGTGAAGATATTTGTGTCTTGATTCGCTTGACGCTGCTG` gave a fluorescence intensity of 4630 a.u.
`CTAACGAAGGTTTGCACGGTGGGTGACAAGCCAAGTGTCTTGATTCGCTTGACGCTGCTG` has a fluorescence intensity of 6710 a.u.
With `CTTTCCCGATCTTGAGACGTGGGTGTAGCACATTTGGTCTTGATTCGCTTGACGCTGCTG` the fluorescence intensity was 6590 a.u.
`CGGGGTTAAGTTTGGCGTGTGGGTGGCTTGCAGCAGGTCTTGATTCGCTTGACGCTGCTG` gave a fluorescence intensity of 6140 a.u.

Set 3
Target: Histone acetyltransferase KAT6A, winged helix 1, GST fusion (KAT6A, Homo sapiens, UniProt Q92794, residues 1-85)
Method: protein binding microarray
Form: double-stranded DNA, one strand shown
Matrix: in vitro
Concentration: not given
Setting: 8-mer, flanks averaged, mean of 2 arrays, mostly near background
Relative to: not given
Direction: higher = stronger binding
Target sequence (chain): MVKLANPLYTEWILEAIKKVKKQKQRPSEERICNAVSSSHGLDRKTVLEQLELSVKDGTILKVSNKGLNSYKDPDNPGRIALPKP
The E-score of `CCGCTACA` is reported as 0.262.
With `AAGCGTTG` the E-score was 0.0239.
For `AATTGCAC`, the E-score was -0.18.
`GCGTAAGA` gave an E-score of 0.196.
`ACGTCACC` has an E-score of -0.0313.
With `GTATGGAC` the E-score was -0.0196.
With `CGGGATCA` the E-score was 0.294.
The E-score of `ATACTGTC` is reported as -0.123.
The E-score of `GCTGACTA` is reported as 0.0564.
With `AGGAAAAG` the E-score was -0.1.
`CGAATCAC` has an E-score of -0.0804.
`ACTAATGC` gave an E-score of 0.0531.
`CGGTTGAG` gave an E-score of 0.11.
For `CGCTAAAC`, the E-score was 0.233.
With `CATCGACA` the E-score was -0.11.
`TGTGCACA` has an E-score of -0.0289.
`CAGGTACG` gave an E-score of 0.0708.
With `ATAACCGC` the E-score was 0.134.

Set 4
Target: RNA binding protein fox-1 homolog 2, RRM domain, GST-SBP tag (RBFOX2, Homo sapiens, UniProt O43251-10, residues 100-194)
Method: RNA Bind-n-Seq
Form: RNA
Matrix: in vitro
Concentration: 365 nM
Setting: natural RNA segment, single round, ends assumed
Relative to: no-protein control
Direction: higher = stronger binding
Residues (chain): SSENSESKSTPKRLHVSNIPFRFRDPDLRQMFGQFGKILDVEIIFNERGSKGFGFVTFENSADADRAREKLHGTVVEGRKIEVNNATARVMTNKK
`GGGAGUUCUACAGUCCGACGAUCUAUUAGAGCCCAUCCUGGAGCCCCACCUCUGAACCACCUCCUACCAGCUGUCCCUCAGGCUGGGGGAAAACAGGUGUUUGAUUUGUCACCGUUGGAGCUUGGAUAUGUGCUGGAAUUCUCGGGUGCCAA` — result for “RBNS enrichment (R)”: 0.437.
`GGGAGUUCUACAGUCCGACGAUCAGGUUUUUGAUCUUGCACUUUGCGAUGCAAAUUAUCUGUGUGGAGGGGAAGCGAAUGUUUCUGAACAUAAGGCUCUAAGACUCGUGUGAGGCUGAGAGUGAAUGGCAGUGUGGAAUUCUCGGGUGCCAA` — result for “RBNS enrichment (R)”: 0.307.
For `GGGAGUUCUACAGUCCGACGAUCACGGAAGUUGACGCUCAAACUCCUCCCCAAAGUGCCUGGACUUUCAUGAACCUAGAGAUGCUAUCGGUGACAUCCGCCGUUGUGUUGUUCUUUUGCAGCCGUCUGGGCCGUGGAAUUCUCGGGUGCCAA`, “RBNS enrichment (R)” read 0.372.
`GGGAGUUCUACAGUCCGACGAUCUUUUUAACCUUCUUUUUGCAAAUGUCUUCAGGGAACUGAGCUAAUACUUUUUUUUUUUCUUGAUGUUUUCUUGAAAAGCCUUUCUGUUGCAACUAUGAAUGAAAACAAAAUGGAAUUCUCGGGUGCCAA`: “RBNS enrichment (R)” 0.743.
`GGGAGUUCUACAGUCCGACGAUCUGGGAGCAAGCGCCUUCUGCAGCACAGGAAGCCGAAGCUGGGGUCAGGUGAGGUCGCUACCCCUGGAGGUCUGGCAUAAGGGCCCCACCCUCAGGUCUCCUACACUGGCCUGGAAUUCUCGGGUGCCAA` — result for “RBNS enrichment (R)”: 0.236.
For `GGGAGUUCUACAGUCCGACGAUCUCCAAUAACCCAGGGGUUUCCUCAUGUGAUGCAAAUACUACGUGUCCAACCAAUCAGUGCUGUCAACGGGCUGCCAUAGCUCCUUCGAUGGCAAAUAGGAUGUGUGCCCAUGGAAUUCUCGGGUGCCAA`, “RBNS enrichment (R)” read 0.248.
`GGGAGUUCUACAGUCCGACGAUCGCUGCCAGUCUUUCUCCCCUGCAGCUUCCUCUGCUUCUGGAAUGAACCAUGUAUCCUGGAGACCCUCCCAAUGGAUGAGAGUGGAAAGACAUCAGUACAACUGGACUUGGUGGAAUUCUCGGGUGCCAA` — result for “RBNS enrichment (R)”: 0.743.
`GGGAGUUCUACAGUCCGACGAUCCCCGUCCACGUCCUCCAAGCUCACGACCUUGGAGCCCCGUGGAGCUGGACUGAGGAGGAGGCUGCACAGCGGGAGAGCAGCUGGUCCAGACCAGCCCUGCAGCCCCCACUUGGAAUUCUCGGGUGCCAA`: “RBNS enrichment (R)” 0.261.
`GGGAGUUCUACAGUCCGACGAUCCUGUGGUUGACUGAACUGCUGUUGCUGUCCACAUUCCACCCUGACCCAUUCCCUGCUUGCGCCUAGGGUGUUUUCCAGAUAGCCCAGAGUUCCAGCUUUGACAGCCUGAUUGGAAUUCUCGGGUGCCAA` — result for “RBNS enrichment (R)”: 0.637.

A few entries again (set 1):
`CACGGGCC` gave an E-score of -0.417.
With `CGGGAGCC` the E-score was -0.351.
`GAGTTTCA` has an E-score of -0.121.
With `GTGAATCA` the E-score was -0.0506.
For `GATCAAGC`, the E-score was -0.09.
The E-score of `AACCGCGT` is reported as -0.0447.
The E-score of `AGAGGCGC` is reported as -0.273.
The E-score of `CCCACTTC` is reported as -0.073.
`GTCATTTA` has an E-score of 0.195.
For `ATGGTCAC`, the E-score was -0.0108.
`AGTTCTCA` has an E-score of 0.0813.
